Measurements pooled from the literature.
Compare with care: the assays were run in different laboratories. “And” joins repeats or separate records; there may be more than shown. ± marks the error that the study gave.
MAL12: Alpha-glucosidase MAL12 (MAL12, Saccharomyces cerevisiae S288c, UniProt P53341)
UniProt P53341, sequence (whole entry, looked up): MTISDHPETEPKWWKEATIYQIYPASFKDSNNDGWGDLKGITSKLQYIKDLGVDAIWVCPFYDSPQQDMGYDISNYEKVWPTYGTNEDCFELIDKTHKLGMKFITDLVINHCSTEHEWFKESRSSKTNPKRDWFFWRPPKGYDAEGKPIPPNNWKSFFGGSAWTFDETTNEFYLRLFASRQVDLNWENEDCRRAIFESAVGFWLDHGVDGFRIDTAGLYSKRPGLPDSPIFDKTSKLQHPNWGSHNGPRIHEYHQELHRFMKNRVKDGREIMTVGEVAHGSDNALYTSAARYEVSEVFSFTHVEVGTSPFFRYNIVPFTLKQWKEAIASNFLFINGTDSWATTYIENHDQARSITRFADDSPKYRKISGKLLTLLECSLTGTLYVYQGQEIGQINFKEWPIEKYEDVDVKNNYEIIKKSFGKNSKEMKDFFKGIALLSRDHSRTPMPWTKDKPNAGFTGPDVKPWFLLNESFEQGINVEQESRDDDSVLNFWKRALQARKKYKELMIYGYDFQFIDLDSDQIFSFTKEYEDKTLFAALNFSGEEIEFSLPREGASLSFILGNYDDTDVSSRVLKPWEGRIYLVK
UniProt P07237, sequence (whole entry, looked up): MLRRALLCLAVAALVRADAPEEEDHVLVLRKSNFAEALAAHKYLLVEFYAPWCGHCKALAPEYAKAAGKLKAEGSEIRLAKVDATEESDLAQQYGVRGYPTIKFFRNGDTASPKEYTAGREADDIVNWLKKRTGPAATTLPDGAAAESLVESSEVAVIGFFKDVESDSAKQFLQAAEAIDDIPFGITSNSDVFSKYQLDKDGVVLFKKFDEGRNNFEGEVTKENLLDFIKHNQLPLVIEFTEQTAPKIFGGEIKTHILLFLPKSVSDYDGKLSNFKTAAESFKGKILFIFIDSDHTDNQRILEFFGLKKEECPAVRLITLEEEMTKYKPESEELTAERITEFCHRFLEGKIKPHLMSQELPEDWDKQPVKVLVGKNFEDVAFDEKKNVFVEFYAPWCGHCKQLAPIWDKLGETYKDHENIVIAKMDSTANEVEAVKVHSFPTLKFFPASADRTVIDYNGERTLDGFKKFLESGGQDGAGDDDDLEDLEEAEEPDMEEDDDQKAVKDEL
UniProt Q12884, sequence (whole entry, looked up): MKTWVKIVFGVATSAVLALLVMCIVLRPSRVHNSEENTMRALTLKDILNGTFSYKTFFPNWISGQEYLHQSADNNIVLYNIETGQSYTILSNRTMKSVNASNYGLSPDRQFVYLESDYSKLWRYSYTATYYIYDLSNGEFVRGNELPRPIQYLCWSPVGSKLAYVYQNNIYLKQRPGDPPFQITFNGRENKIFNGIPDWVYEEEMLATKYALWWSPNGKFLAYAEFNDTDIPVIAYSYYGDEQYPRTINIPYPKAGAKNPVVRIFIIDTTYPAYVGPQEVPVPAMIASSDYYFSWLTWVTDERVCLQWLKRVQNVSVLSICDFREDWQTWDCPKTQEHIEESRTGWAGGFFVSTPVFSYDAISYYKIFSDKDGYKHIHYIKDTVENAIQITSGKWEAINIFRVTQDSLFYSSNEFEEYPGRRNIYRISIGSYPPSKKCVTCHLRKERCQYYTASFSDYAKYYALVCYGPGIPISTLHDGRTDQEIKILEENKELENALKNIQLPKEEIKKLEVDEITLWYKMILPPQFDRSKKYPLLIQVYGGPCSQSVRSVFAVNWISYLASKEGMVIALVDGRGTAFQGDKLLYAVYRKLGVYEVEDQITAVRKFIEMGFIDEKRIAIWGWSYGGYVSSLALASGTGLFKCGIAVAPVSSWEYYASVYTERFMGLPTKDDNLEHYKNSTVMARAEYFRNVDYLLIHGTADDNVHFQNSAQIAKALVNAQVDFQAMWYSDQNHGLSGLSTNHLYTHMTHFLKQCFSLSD
UniProt P35408, sequence (whole entry, looked up): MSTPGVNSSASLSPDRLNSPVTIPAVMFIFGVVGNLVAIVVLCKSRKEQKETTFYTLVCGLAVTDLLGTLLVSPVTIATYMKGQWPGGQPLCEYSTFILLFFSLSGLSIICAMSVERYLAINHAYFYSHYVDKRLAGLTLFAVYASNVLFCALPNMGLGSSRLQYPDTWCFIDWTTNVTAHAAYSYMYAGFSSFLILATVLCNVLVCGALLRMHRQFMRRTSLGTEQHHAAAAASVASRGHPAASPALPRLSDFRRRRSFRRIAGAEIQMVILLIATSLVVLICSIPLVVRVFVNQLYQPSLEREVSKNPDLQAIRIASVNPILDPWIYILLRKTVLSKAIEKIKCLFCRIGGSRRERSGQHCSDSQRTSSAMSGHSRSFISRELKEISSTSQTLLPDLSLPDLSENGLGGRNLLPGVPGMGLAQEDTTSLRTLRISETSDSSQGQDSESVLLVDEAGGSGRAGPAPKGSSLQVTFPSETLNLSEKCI
UniProt O43614, sequence (whole entry, looked up): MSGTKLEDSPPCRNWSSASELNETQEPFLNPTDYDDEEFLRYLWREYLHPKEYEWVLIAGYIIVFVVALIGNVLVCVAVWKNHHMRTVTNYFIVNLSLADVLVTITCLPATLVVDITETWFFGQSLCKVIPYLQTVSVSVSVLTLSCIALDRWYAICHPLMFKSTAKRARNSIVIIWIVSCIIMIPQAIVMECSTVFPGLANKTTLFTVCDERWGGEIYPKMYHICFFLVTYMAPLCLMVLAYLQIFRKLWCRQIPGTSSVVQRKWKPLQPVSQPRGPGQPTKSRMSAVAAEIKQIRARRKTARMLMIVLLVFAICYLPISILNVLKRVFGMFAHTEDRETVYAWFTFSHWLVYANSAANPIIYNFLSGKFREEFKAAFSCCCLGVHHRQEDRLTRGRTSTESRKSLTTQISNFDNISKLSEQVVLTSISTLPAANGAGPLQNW
UniProt P17707, sequence (whole entry, looked up): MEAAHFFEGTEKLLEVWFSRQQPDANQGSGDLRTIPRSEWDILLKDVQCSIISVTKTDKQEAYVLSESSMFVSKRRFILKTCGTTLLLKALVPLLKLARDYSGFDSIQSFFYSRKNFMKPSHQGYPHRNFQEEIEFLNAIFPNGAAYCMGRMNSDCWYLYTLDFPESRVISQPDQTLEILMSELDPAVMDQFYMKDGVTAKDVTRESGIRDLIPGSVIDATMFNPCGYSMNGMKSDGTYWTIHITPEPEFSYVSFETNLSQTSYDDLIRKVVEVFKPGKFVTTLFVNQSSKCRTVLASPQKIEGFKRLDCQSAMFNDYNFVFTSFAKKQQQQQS
UniProt P43681, sequence (whole entry, looked up): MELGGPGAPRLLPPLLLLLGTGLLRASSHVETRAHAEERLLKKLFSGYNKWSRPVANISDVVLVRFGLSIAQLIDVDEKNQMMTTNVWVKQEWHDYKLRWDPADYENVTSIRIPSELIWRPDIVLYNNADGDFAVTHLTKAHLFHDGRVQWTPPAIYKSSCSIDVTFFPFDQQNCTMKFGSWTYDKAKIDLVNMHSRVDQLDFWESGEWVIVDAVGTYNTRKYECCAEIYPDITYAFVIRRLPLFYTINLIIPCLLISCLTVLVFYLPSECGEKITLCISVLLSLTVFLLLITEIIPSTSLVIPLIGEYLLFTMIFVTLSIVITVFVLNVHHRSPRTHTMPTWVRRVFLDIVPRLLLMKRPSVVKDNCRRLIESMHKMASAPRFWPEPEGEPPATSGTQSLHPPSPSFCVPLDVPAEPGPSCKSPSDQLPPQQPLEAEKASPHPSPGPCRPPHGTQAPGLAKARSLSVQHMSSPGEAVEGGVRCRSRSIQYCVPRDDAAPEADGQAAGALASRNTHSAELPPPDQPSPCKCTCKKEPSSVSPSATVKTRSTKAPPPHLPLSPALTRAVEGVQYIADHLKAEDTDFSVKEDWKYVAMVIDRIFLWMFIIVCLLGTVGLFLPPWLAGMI
UniProt Q15759, sequence (whole entry, looked up): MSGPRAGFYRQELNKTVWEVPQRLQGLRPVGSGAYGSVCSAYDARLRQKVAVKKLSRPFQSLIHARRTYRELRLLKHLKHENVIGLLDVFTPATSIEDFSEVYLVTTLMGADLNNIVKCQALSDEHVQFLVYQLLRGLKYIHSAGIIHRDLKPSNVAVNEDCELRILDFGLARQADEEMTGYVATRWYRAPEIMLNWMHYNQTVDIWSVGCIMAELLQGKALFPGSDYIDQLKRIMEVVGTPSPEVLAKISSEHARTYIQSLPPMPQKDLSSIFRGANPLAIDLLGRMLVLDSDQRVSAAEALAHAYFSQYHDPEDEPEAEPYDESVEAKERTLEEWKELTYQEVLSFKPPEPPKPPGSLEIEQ
UniProt P55085, sequence (whole entry, looked up): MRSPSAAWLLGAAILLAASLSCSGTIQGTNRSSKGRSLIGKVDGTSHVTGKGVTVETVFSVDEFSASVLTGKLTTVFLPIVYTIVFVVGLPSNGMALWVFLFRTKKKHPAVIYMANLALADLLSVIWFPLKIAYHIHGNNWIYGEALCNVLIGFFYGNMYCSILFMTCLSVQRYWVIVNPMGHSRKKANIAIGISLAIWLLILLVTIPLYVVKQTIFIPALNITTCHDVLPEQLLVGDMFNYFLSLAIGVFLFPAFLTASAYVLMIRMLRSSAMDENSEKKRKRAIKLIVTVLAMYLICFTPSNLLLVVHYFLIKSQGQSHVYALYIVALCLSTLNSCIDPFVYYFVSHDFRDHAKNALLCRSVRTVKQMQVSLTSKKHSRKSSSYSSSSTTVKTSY
UniProt P18825, sequence (whole entry, looked up): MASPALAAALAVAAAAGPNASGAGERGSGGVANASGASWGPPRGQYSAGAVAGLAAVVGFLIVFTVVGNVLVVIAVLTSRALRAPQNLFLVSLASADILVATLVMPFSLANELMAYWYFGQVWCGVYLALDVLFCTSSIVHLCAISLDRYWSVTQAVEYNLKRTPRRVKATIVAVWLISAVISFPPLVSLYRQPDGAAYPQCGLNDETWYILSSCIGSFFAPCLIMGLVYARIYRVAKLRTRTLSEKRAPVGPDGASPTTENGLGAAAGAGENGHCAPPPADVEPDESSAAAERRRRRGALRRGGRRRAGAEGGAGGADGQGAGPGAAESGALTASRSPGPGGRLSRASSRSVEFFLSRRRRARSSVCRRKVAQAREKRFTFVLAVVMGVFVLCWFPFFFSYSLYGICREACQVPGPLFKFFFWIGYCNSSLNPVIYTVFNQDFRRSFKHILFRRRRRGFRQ

The median ratio of `O=C(c1ccc(Cl)cc1)N1CCN2C(=O)N(OC(=O)N3CCOc4ccccc43)C(=O)C2C1` (stereo not shown) is reported as 1.29 (Prolyl endopeptidase FAP (FAP, Homo sapiens, UniProt Q12884); enzyme activity, inhibitor, MS-based ABPP; SW-620 conditioned medium; 10 µM, 1 h, 37 °C; reference: compound over DMSO, lower = stronger inhibition).
With `CCc1ccc(N2C(=O)/C(=C3/C(=O)N(C)c4ccc(Cl)cc43)NC2=S)cc1` the inhibition was 15% and 14.8% (MAL12; enzyme activity; 25 µM, with: pNPG).
The inhibition of `CN1CCN(c2cc(-c3ccncc3)c(-c3ccc4ccccc4c3)nn2)CC1` is reported as -7.2% (Proteinase-activated receptor 2, trypsin-activated (F2RL1, Homo sapiens, UniProt P55085); antagonist, FLIPR; 10 µM).
`Cn1cccc1-c1cccnc1` has an inhibition of 14.9% (Alpha-2C adrenergic receptor (ADRA2C, Homo sapiens, UniProt P18825); binding; 50 µM).
`NNCc1c[nH]c2ccccc12`: inhibition “no inhibition” (S-adenosylmethionine decarboxylase proenzyme (AMD1, Homo sapiens, UniProt P17707); probe labelling, inhibitor, gel-based competitive ABPP; transfected HEK-293T cell lysate; 1 µM).
`O=C(O[C@@H]1Cc2c(O)cc(O)cc2O[C@@H]1c1cc(=O)c(O)c2c(O)c(O)cc([C@H]3Oc4cc(O)cc(O)c4C[C@H]3O)c2c1)c1cc(O)c(O)c(O)c1` — result for inhibition: “inhibited” (Protein disulfide-isomerase (P4HB, Homo sapiens, UniProt P07237); insulin reduction; 20 µM).
`COc1cc(Nc2ncc(F)c(Nc3ccc4c(n3)NC(=O)C(C)(C)O4)n2)cc(OC)c1OC` has an inhibition of 27% (Ribosomal protein S6 kinase alpha-1 (RPS6KA1, Homo sapiens, UniProt Q15418); KINOMEscan; 10 µM, RSK1(Kin.Dom.2-C-terminal)).
For `COCc1c(-c2cc3cc(C)cc(OC)c3s2)c2c(N)ncnn2c1CN1CCNC(=O)C1`, the inhibition was -2% (nicotinic acetylcholine receptor; radioligand binding; 10 µM).
For `O=C(N/N=C/c1ccc(Cl)cc1Cl)c1cnccn1`, inhibition read “inactive” (Gag-Pol polyprotein, integrase with LEDGF/p75 (gag-pol, Human immunodeficiency virus 1, UniProt P12497); LEDGF/p75-integrase interaction, AlphaScreen; 50 µM).
`CO[C@H]1C[C@@H]2CC[C@@H](C)[C@@](O)(O2)C(=O)C(=O)N2CCCC[C@H]2C(=O)O[C@H]([C@H](C)C[C@@H]2CC[C@@H](OC(=O)NCCOCCOCCOCCOCCOCCOCCOCCOCCC(=O)N3CCc4cc(Cn5nc(-c6ccc7oc(N)nc7c6)c6c(N)ncnc65)ccc4C3)[C@H](OC)C2)C[C@@H](O)[C@H](C)/C=C(\C)[C@@H](O)[C@@H](OC)C(=O)[C@H](C)C[C@H](C)/C=C/C=C/C=C/1C`: “decreased appetite leading to dose reduction” 0% (patients with advanced solid tumours; intravenous, 12 mg weekly, any grade).
`CN1C(=S)N(c2ccccc2)C(=O)/C1=C1/C(=O)N(C)c2ccc(Cl)cc21` gave an inhibition of 21.9% (MAL12; enzyme activity; 50 µM, with: pNPG).
`Oc1ccc(Cc2ccc(O)cc2)cc1` has an inhibition of over 50% (MAL12; inhibitor; 100 µg/mL, 0.4167 h, with: p-nitrophenyl glucoside substrate).
`CC[C@H](C)[C@H](NC(=O)[C@@H](NC(=O)[C@H](N)Cc1ccccc1)C(C)C)C(=O)N[C@@H](C)C(N)=O` gave an inhibition of 73.4% (Amyloid-beta precursor protein (APP, Homo sapiens, UniProt P05067); amyloid-beta aggregation, thioflavin T fluorescence; 2.0 µM, 144 h, with: 2 µM amyloid-beta).
For `CN(CCN1CCC(OC(=O)Nc2ccccc2-c2ccccc2)CC1)C(=O)c1ccc(CN2CCC(C(N)=O)CC2)cc1`, the inhibition was -6% (protein kinase C; enzyme activity; 1 µM).
For `O=C(Nc1cnccc1Cl)N1CCN(Cc2ccc3c(c2)OC(F)(F)O3)CC1`, the inhibition was 2% (Prostaglandin E2 receptor EP4 subtype (PTGER4, Homo sapiens, UniProt P35408); binding, refers to: EP4; 10 µM, human, with: [3H]prostaglandin E2).
`O=C(O)CC(F)(F)C(=O)N1N=C(c2c(-c3ccc(Cl)cc3)c3ccccc3[nH]c2=O)C[C@H]1c1ccc(Cl)cc1` — result for inhibition: “no inhibition” (Glutamate NMDA receptor; Grin1/Grin2b (Grin1/Grin2b, Rattus norvegicus, UniProt P35439+Q00960); TEVC; Xenopus oocytes; concentration not given, diheteromeric GluN1a/GluN2B, with: glutamate, glycine).
With `C[C@H]1CN(c2n[nH]c3nc(N[C@H]4CC[C@H](NS(=O)(=O)CCC(F)(F)F)CC4)ncc23)CCO1` the remaining binding was 1.19 (Zinc transporter 7 (Homo sapiens, UniProt Q8NEW0); Kinobeads competition, refers to: SLC30A7; 0.8 µM, unit not given; reference: vehicle).
`COc1ccc2c3c([nH]c2c1)CCN(C)CC3` gave an inhibition of 30.6 ± 6.4% (Neuronal acetylcholine receptor subunit alpha-7 (Chrna7, Rattus norvegicus, UniProt Q05941); ACh-evoked current, antagonist, two-electrode voltage clamp; Xenopus laevis oocytes; 10 µM, holding potential -40 mV, with: 100 µM acetylcholine).
With `COc1ccc(N2C(=O)N(c3c(C)cccc3Cl)Cc3cnc(Nc4ccc(C5CCN(C)CC5)cc4OC)nc32)nc1` the inhibition was 0.105% (Dual specificity protein kinase CLK1 (CLK1, Homo sapiens, UniProt P49759); kinase activity; 0.5 µM).
For `CC[C@H](C)[C@@H]1NC(=O)[C@@H]2CCCN2C(=O)[C@H](CC(C)C)NC(=O)[C@H](CC(C)C)NC(=O)CNC(=O)[C@@H](NC(=O)[C@@H](NC(=O)[C@H](CC(=O)O)NC(=O)CNC(=O)[C@@H](NC(=O)[C@H](C)NC(=O)CNC(=O)[C@H](CCCCN)NC(=O)[C@H](CC(C)C)NC(=O)[C@H](CC(C)C)NC(=O)[C@H](CCCCN)NC(=O)CNC(=O)[C@@H](NC(=O)[C@@H](N)CC(C)C)C(C)C)C(C)C)C(C)C)CSSC[C@@H](C(=O)O)NC1=O`, “log2 fold change” read -1.12 (RNA-seq, refers to: Samhd1; mouse, traumatic brain injury model, frontal cortex and hippocampus; dose not given; reference: TBI alone).
The inhibition of `O=c1ccc2ccccc2o1` is reported as -2.02% (Neuronal acetylcholine receptor; alpha4/beta2 (Homo sapiens, UniProt P17787+P43681); agonist radioligand binding; 10 µM, SafetyScreen44).
The inhibition of `C[C@@H]1N=C(c2ccccc2F)c2cc(Br)ccc2-n2cnc(C(=O)O)c21` is reported as 95.3 ± 4.8% (rat benzodiazepine site; binding; rat brain; 10 µM, with: [3H]flunitrazepam).
`CN(C(=O)n1cnc(-c2ccc[n+]([O-])c2)c1)C1CCCCC1` gave an inhibition of 2% (Orexin receptor type 2 (HCRTR2, Homo sapiens, UniProt O43614); radioligand binding; 10 µM).
The inhibition of `Cc1ncc2c(n1)[C@H](C)[C@@H]1C[C@H]2[C@@](C)(O)CN1Cc1ccccc1` is reported as 0% (Mu-type opioid receptor (Cavia porcellus, UniProt A0ACM8Q262); binding, radioligand binding; guinea pig brain membranes; 1 µM, with: [3H]DAMGO).
The inhibition of `C#Cc1n[nH]c2c(-c3cn(C(C)c4ccccn4)c(=O)[nH]c3=O)cc(F)cc12` (stereo not shown) is reported as 9.1% (Mitogen-activated protein kinase kinase kinase 7, with TAB1 (MAP3K7, Homo sapiens, UniProt O43318); kinase activity, inhibitor; 1 µM).
The inhibition of `O=C(Nc1cccnn1)N1CCN([C@@H]2CCOc3cc(C(F)(F)F)ccc32)CC1` is reported as 13% (Gag-Pol polyprotein, protease (gag-pol, Human immunodeficiency virus type 1 group M subtype B, UniProt P04585); enzyme activity; 20 µM).
The inhibition of `O=C(Nc1cccnn1)N1CCC(=Cc2cccc(Oc3ccc(C(F)(F)F)cn3)c2)CC1` is reported as 5% (B2 bradykinin receptor (BDKRB2, Homo sapiens, UniProt P30411); binding; 50 µM, with: [3H]bradykinin).
`CC[C@H](C)[C@H](NC(=O)[C@H](Cc1ccccc1)NC(=O)[C@H](CCC(=O)O)NC(=O)[C@H](CCCNC(=N)N)NC(=O)[C@H](C)NC(=O)[C@H](C)NC(=O)[C@H](CCC(N)=O)NC(=O)[C@H](CCC(=O)O)NC(=O)[C@H](CCC(=O)O)NC(=O)[C@H](CC(C)C)NC(=O)[C@H](Cc1ccc(O)cc1)NC(=O)[C@H](CO)NC(=O)[C@H](CO)NC(=O)[C@@H](NC(=O)[C@H](CC(=O)O)NC(=O)[C@H](CO)NC(=O)[C@@H](NC(=O)[C@H](Cc1ccccc1)NC(=O)[C@@H](NC(=O)CNC(=O)[C@H](CCC(=O)O)NC(=O)[C@H](C)NC(=O)CCc1c[nH]cn1)[C@@H](C)O)[C@@H](C)O)C(C)C)C(=O)N[C@@H](C)C(=O)N[C@@H](Cc1c[nH]c2ccccc12)C(=O)N[C@@H](CC(C)C)C(=O)N[C@H](C(=O)N[C@@H](CCCNC(=N)N)C(=O)NCC(=O)N[C@@H](CCCNC(=N)N)C(=O)N[C@@H](CCCCNC(=O)COCCOCCNC(=O)COCCOCCNC(=O)CC[C@H](NC(=O)CCCCCCCCCCCCCCCCC(=O)O)C(=O)O)C(=O)NCC(=O)NCC(=O)N[C@@H](CO)C(=O)N[C@@H](CCCCNc1c(NCCCCCN(O)C(=O)CCC(=O)NCCCCCN(O)C(=O)CCC(=O)NCCCCCN(O)C(C)=O)c(=O)c1=O)C(=O)O)C(C)C` [zirconium-89 labelled] gave a tissue uptake of 1.01 %ID/g (rat, bone marrow; sc, 3 nmol/kg, 24 h, ex vivo).
For `FC(F)(F)c1cccc(Nc2nc(NCCOc3ccccc3)nc3[nH]cnc23)c1`, the inhibition was 3% (Mitogen-activated protein kinase 11 (MAPK11, Homo sapiens, UniProt Q15759); Z'-LYTE or Adapta; 5 µM).
For `C[C@H](C(=O)N[C@H]1COc2ccccc2[C@@H]1S(C)(=O)=O)c1ccc(F)cc1`, the inhibition was 5% (Progesterone receptor (PGR, Homo sapiens, UniProt P06401); activity; 10 µM, Eurofins selectivity panel).
Under “log2 fold change”, `Oc1ccc2c3c1O[C@H]1[C@@H](O)CC[C@@]4(O)[C@@H](C2)N(CC2CCC2)CC[C@]314` is recorded as 0.023 (G-protein coupled receptor 61 (GPR61, Homo sapiens, UniProt Q9BZJ8); β-arrestin recruitment, TANGO luminescence, refers to: GPR61; concentration not given; reference: basal luminescence).
For `CC(C)CC(=O)OC[C@H]1O[C@@](C#N)(c2ccc3c(N)ncnn23)[C@H](O)[C@@H]1O`, the inhibition was 2% (Glutamate receptor ionotropic, NMDA 1 (Grin1, Rattus norvegicus, UniProt P35439); radioligand binding; 20 µM, rat).
With `CN1CCN(c2nc(N)c3ccccc3n2)CC1` the inhibition was 7.7% (5-hydroxytryptamine receptor 1D (Htr1d, Rattus norvegicus, UniProt P28565); radioligand binding, radioligand competition binding; rat; 0.1 µM, first replicate; reference: control specific binding).
For `CC(C)N1CCC[C@H]1CNC(=O)c1cn(C2CCCC2)c(=O)c2c1c1ccccc1n2C`, the inhibition was 22% (L-type calcium channel dihydropyridine site, rat; radioligand binding; 10 µM).
`CCc1cc(=O)[nH]c(-n2nc(C)cc2NC(=O)c2cc(C)ccc2F)n1` — result for inhibition: “no inhibition” (Rho-associated protein kinase 1 (ROCK1, Homo sapiens, UniProt Q13464); radiometric kinase; 10 µM).
`O=C(O[C@@H]1Cc2c(O)cc(O)cc2O[C@@H]1c1cc(O)c(=O)c2c(O)c(O)cc([C@H]3Oc4cc(O)cc(O)c4C[C@H]3OC(=O)c3cc(O)c(O)c(O)c3)c2c1)c1cc(O)c(O)c(O)c1`: inhibition “inhibited” (Protein disulfide-isomerase, a' domain (P4HB, Homo sapiens, UniProt P07237); di-eosin-GSSG reductase activity; isolated a' domain; 20 µM).
For `Cc1ncc(C)n2nc(/C=C/c3nc(N4CCCC4)cc(N4CCOCC4)n3)nc12`, the inhibition was -10% (thyroid hormone receptor; radioligand binding; 10 µM).
